Measurements of several laboratories.
A part holds a random share of what one study measured. Positions count from the first letter of the parent shown.

Set 1
Target: Interferon regulatory factor 3, full length, phosphomimetic (IRF3, Homo sapiens, UniProt Q14653, residues 1-427, S386D/S396D/S398D/S402D/T404D/S405D)
Chain of UniProt Q14653 (whole entry, unmodified, looked up): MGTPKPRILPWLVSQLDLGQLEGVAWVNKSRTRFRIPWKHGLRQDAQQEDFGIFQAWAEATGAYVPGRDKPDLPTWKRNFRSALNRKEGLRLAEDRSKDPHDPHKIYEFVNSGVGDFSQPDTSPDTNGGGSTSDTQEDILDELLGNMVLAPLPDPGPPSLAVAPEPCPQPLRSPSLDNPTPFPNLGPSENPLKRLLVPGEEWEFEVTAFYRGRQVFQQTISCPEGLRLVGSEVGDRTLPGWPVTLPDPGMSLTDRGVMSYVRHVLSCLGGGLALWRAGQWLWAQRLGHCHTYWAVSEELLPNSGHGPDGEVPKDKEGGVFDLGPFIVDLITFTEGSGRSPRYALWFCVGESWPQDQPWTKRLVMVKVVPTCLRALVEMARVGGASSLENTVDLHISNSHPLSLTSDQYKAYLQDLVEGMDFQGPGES
Method: protein-binding microarray
Form: double-stranded DNA, one strand shown
Medium: in vitro
Concentration: 2540 nM top
Notes: 60-bp whole probe
With: salmon DNA 0.4 mg/ml
Baseline: random background probes
Reading: higher = stronger binding
Constant ends, left off below: GCCTAGCAC … GTCTTGATTCGCTTGACGCTGCTG
Strand	fitted relative affinity
GACGGCATCGGTCTCGGGACGTGCTAG	-0.414 z-score
GACGGTATCGGTATCGGGAGGTGCTAG	4.63 z-score
GACGGTTTCGACTATGGGGACGTGCTA	2.89 z-score
GCCGGACTGGGTCTCGGGACGTGCTAG	-0.241 z-score
CACGATCTCAGTATCGAGACGTGCTAG	0.854 z-score
GACGATATCACTCTCGAGACGTGCTAG	1.48 z-score
GACTGTATCGGGTTTCGGGACGTGCTA	2.8 z-score
TTAGGTTTCGGTTTCGATTAGTGCTAG	11.8 z-score
TCAAATTGTCTTTTCACACTGTGCTAG	0.974 z-score
TCAGGTTTCTGGTTTATACTGTGCTAG	2.22 z-score
GACGGACTGGACTTTCGGTACGTGCTA	1.17 z-score
CACGGTTTCGACTTTCGGGACGTGCTA	3.41 z-score
GACCGTATCGGGTTTCGGGACGTGCTA	3.33 z-score
GACGGTTTCGTCACTGGGGACGTGCTA	2.52 z-score
TAAGGTTTCCAATCAGCCCCGTGCTAG	5.48 z-score
GACGATTTCAGTATCTAGACGTGCTAG	2.13 z-score
GACGATTTCACACTGGAGACGTGCTAG	1.45 z-score

Set 2
Target: RNA binding protein fox-1 homolog 2, RRM domain, GST-SBP tag (RBFOX2, Homo sapiens, UniProt O43251-10, residues 100-194)
Method: RNA Bind-n-Seq
Form: RNA
Medium: in vitro
Concentration: 365 nM
Notes: natural RNA segment, single round, ends assumed
Baseline: no-protein control
Reading: higher = stronger binding
Constant ends, left off below: GGGAGUUCUACAGUCCGACGAUC … UGGAAUUCUCGGGUGCCAA
Target sequence (chain): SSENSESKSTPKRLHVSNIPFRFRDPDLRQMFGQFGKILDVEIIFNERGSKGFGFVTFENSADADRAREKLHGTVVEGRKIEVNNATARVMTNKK
Strand	RBNS enrichment (R)
CUCCAAGGACCCAGGCGCCAGCAGCCCCAGGACACAGGGGACUCAGUGUGUGGGACUUGGUCACUCCAUGUCAGACACACGAGCAGAGAGGAACACAAACCACUGUGGAG	0.315
CUAUUAAAAAUCAGAUUGAAAAGUUUUGAGAAAAUGUUAUUUUUACUGAAAGCAAGCAGUGGCCUAUAAAGAACAUUCUUAGGAGCCUUUUCUAUUUGCGUUCAAAACUG	0.452
GGUCCCAUCUACUGUGGUCCACUGAGCCCAAUUUGAUAUGUAAAUACACCUCAAAUUUGGAAAGUUGCCCCAUCUCUCCCCCCCAACCCAUGCCCCUGCUCACCUCUGCC	0.625
UCCUCCAUCCCCCACUUCACCCCAUCCCAUACCAGUUCCAUCCAGGGUCUGCUUAACUGCCAAGAGCAGGUCCUGGAGUUCCCUUCACCUGCAGAGUCCUUUUCAUGACC	1.68
UCACCCCACCCUCGACUCUGGCACCAGUAUGGUUCUAUGCAUGUUGCAGCUCUCUGGGCUGUGACUCUGUUAAGAAGGUUUGCCAGCUUUCUGGCCCUUCCCCGCUCCUA	0.825
UGCAUGAUACCUUGAAAUUGGGGGGAGGGGGCAUGCCAAGUUGGGCAUCACUUUGUCUUAGCAAUUAAUGGGAUAUUGAUUACUAAAAUAAGUUAAUAUUAAGCAAGGUG	6.04
AGAACGUGGUUUUGCUUUGCAUUUUGUAGUUCUUCCCGUCAGUGCUGUGUGUAGUCCUGCUUCUUCCAGUCUGCAGUAUUCACUAGAGGCGCCCUUUGCAUGUUGCACUC	22.3
GCAAUCCUUACAAAUGAUUGCUUUUAAAAUUUUAAGCUAGGAAAAGAAAUCUAUAGAAAGUGUUCUGUUACAAAAUGUAACUGUUACCAUUGGAAAUUUCACGUCAUAGG	0.493
CCAGUGCCCACCCGUCCACGUUGCUGACAUUGCCACGCUUUGAGGUGUGGUGGUCGCUGGGACCCGUGCCGUGACCCCUAUUUAGCUGUGUUUUGGACUCCGUGUCUUCA	0.324
AACAAGGACAGUCAGGGUGAAACUUCUUUUGCCAGAAGUGUGGCCUGAGUUGAAUUUCUGGGAGGAUGACGCAGAUGUCUGCUGCAGAGCUGGGCUGAGAGUUCUGCAGU	1.02
CAAGAAGGUUUCCUAUACUAUACAUAUAUAUACGUUCUGGUUGGCAAGCCCUGCUGAUCAGAGAAAGUCUCUGCAUGUUCUAGUGUUAGUAACUAAUUUUUAUAUAGUUA	0.598
AUUGACCUUUUUACAAAGUUUGAUCCCCAAGCAUCCUCAACUAAAUCAUUGAAUACUUCAAUCAGGAUAUUAUCUGCUUUACUUUACAAAUAAAACCAAAUCUUUUGUCA	0.681

Set 3
Target: CCNE2, cyclin fold, Cln2 fusion (human)
Method: yeast growth competition, sequencing
Medium: yeast
Notes: weak parent motif
Baseline: not given
Reading: higher = stronger binding
Starting sequence: HIRA docking peptide (human); SLSKRKLELEVET
Change	normalised enrichment score
SLSKRKLEFEVET [L9F]	-0.00301
SLSKAKAELEVET [R5A L7A]	-0.257
SLSKRALELEVET [K6A]	0.476
SLSKRKLELAVET [E10A]	-0.349
SLSKRKLEAEVET [L9A]	-0.177
SLSARKLELEVET [K4A]	-0.549
SLSKRKLELEVAT [E12A]	-0.102
SLSKKKLEFEVET [R5K L9F]	-0.103
SLSKRKLELEVEA [T13A]	0.324
ALSKRKLELEVET [S1A]	0.124

Set 4
Target: Prothrombin, mature alpha-thrombin (F2, Homo sapiens, UniProt P00734)
Method: aptamer microarray, sandwich
Form: DNA with 2'F-ANA
Medium: in vitro
Concentration: 200 nM
Notes: whole 15-mer aptamer, many near background
With: Cy3 exosite-II aptamer, 400 nM
Reading: higher = stronger binding
Strand: GGTTGGTGTGGTTGG
Modification	mean fluorescence intensity [a.u.]
2'F-ANA at 4 7 10	109
2'F-ANA at 2 5 7 8 11 12 13 14	65.4
2'F-ANA at 2 4 7 9 10 11 12 13 15	100
2'F-ANA at 3 4 6 8 9 11 12 13 14 15	244
2'F-ANA at 4 7 8 10 11 14 15	94.1
2'F-ANA at 1 2 5 8 10 11 12 14	101
2'F-ANA at 4 5 6 7 8 10 14 15	51.9
2'F-ANA at 2 4 6 7 12 13 14 15	108
2'F-ANA at 2 3 5 7 11	129
2'F-ANA at 1 4 7 8 9 10 13 15	52.1
2'F-ANA at 1 2 3 6 7 8 11	215
2'F-ANA at 1 2 6 7 8 9 12 13 14 15	66.7
2'F-ANA at 2 4 8 10 13 14	60.2
2'F-ANA at 2 3 4 7 8 9 10 11 12 13	267
2'F-ANA at 2 3 5 6 7 8 9 10 11 15	55.4
2'F-ANA at 1 2 3 5 6 9 10 13 15	48
2'F-ANA at 1 2 4 5 6 8 11 12 14 15	86.6
2'F-ANA at 4 6 8 10 11 13 14	56.1
2'F-ANA at 1 3 5 6 9 11 14	61
2'F-ANA at 1 2 4 6 9 10 11 12 13	53
2'F-ANA at 1 3 5 7 8 10 11 12 15	68
2'F-ANA at 1 3 4 7 8 9 10 11 13 14 15	53.2
2'F-ANA at 2 4 5 6 7 14 15	116

Set 5
Target: Histone acetyltransferase KAT6A, winged helix 2, GST fusion (KAT6A, Homo sapiens, UniProt Q92794, residues 85-181)
Method: protein binding microarray
Form: double-stranded DNA, one strand shown
Medium: in vitro
Concentration: not given
Notes: 8-mer, flanks averaged, mean of 2 arrays, mostly near background
Baseline: not given
Reading: higher = stronger binding
Target sequence (chain): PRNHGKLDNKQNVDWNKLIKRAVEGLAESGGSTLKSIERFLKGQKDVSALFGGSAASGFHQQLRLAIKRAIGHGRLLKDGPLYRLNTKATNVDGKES
Strand	E-score
CTTGTGGA	-0.0288
CTGTACCA	-0.112
CATAGCCA	0.025
CTTGAAAA	0.142
GATGCCGC	0.0435
GCTCTAGA	-0.227
CCTGTATC	-0.00858
ACCTGATG	-0.148
ATCCGTTA	0.0425
GCCTAGAA	-0.0673
AGGCACCC	-0.0987
CGTATAAC	-0.0244
TGAACCAA	0.222
AACCCTGG	0.0719
AGAGTTGC	-0.00737
TACCAAGA	0.033
GTTTATAA	0.0188
GAGTCACA	-0.00967
GGTCACCA	0.0813
CGCAAACA	0.0442
AAGTCCAG	0.0392
CGCTGCTA	0.00754
ACGATCAG	0.0428
ACACCGCT	-0.0781
ACTTATGC	-0.0805

Some of these lines once more (set 1):
Strand	fitted relative affinity
GACGGTTTCGACTATGGGGACGTGCTA	2.89 z-score
GCCGGACTGGGTCTCGGGACGTGCTAG	-0.241 z-score
CACGATCTCAGTATCGAGACGTGCTAG	0.854 z-score
GACGATATCACTCTCGAGACGTGCTAG	1.48 z-score
GACTGTATCGGGTTTCGGGACGTGCTA	2.8 z-score
TTAGGTTTCGGTTTCGATTAGTGCTAG	11.8 z-score
TCAAATTGTCTTTTCACACTGTGCTAG	0.974 z-score
TCAGGTTTCTGGTTTATACTGTGCTAG	2.22 z-score
GACGGACTGGACTTTCGGTACGTGCTA	1.17 z-score
